Values quoted from earlier work, collected from citations in different studies.
Lines come from different studies, so protocols differ.
UniProt P0AES9, sequence (whole entry, looked up): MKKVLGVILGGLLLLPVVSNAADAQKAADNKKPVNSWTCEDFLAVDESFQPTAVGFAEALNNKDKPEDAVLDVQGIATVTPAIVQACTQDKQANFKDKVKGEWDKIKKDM
UniProt P11632, sequence (whole entry, looked up): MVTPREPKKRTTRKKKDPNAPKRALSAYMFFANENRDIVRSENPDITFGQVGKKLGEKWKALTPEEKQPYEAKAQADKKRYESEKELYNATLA
UniProt Q01727, sequence (whole entry, looked up): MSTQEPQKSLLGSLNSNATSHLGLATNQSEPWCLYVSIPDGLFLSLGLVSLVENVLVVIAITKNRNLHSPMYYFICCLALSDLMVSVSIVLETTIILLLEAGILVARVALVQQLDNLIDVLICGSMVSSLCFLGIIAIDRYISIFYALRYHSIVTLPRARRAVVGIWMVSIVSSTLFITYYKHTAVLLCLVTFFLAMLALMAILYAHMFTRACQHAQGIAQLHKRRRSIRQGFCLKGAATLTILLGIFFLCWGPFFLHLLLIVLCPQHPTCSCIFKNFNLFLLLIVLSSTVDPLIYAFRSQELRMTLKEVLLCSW
UniProt P00698, sequence (whole entry, looked up): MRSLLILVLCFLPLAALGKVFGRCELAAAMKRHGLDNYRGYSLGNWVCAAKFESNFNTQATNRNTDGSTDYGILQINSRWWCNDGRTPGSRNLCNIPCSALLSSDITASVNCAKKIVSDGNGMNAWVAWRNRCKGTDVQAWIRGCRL

The pKa of `hdeA mature protein (Escherichia coli, UniProt P0AES9)` is reported as 3.87 (NMR, item: Asp43; 298 K, numbering of the source).
`SGVENPGGYCL (sequence looked up)` gave an IC50 of 0.414 µM (H-2 class I histocompatibility antigen, D-B alpha chain, 14 (H2-D1, Mus musculus, UniProt P01899); binding, competitor; peptide; purified MHC class I D allele, together with: radiolabelled standard peptide).
`LYZ (Gallus gallus, UniProt P00698)` gave a pKa of 5.5 (NMR, item: His15; NaCl 100 mM, numbering of the source).
The EC50 of `CVRLHESCLGQQVPCCDPCATCYCRFFNAFCYCR (agouti-related protein (87–120); sequence looked up)` is reported as > 100 µM (Mc1r (Mus musculus, UniProt Q01727); reporter gene, agonist, beta-galactosidase reporter; peptide).
With `AGTTGAGGGGACTTTCCCAGGC (dsDNA)` the Kd was 0.01 µM (NHP6A 1-93 (Saccharomyces cerevisiae, UniProt P11632); fluorescence anisotropy; double-stranded DNA, one strand shown).
With `insulin glulisine` the AUC was 2.12 nM·h (item: total insulin; human; subcutaneous upper arm, 0.2 U/kg, dose-adjusted from 0.1 U/kg).

For quick reference, copied from above:
The pKa of `hdeA mature protein (Escherichia coli, UniProt P0AES9)` is reported as 3.87 (NMR, item: Asp43; 298 K, numbering of the source).
